Measured values of several laboratories.
Lines come from different studies, so protocols differ. Values joined by “and” are separate records of one study, mostly repeats; a detail may differ. ± gives the spread as reported.

Structure (SMILES) | assay | system | setting | solubility
CCOC(=O)N1C[C@@H](c2ccc(C(=O)OC)cc2)N[C@@H](c2ccc(N3CCCC3)cc2)C1 | shake-flask, LC-HRMS | aqueous buffer | 16 h, pH 6.8 | < 4 µM
N=C(N)NC(=O)c1ccc(Cl)c(S(N)(=O)=O)c1 |  | aqueous buffer | pH 7.4 | > 3510 µg/mL
Cc1[nH]c(/C=C2\N=C(c3ccc[nH]3)C=C2OCc2ccccc2)cc1Cc1ccc(OC(F)(F)F)cc1 |  | potassium phosphate buffer | 1.5 h, pH 7.4, room temperature | 7.49 µM
Cc1nccn1CC1CCc2c(c3ccccc3n2C)C1=O (stereo not shown) | kinetic solubility | PBS with 2% DMSO | 2 h, pH 7.4, 25 °C, single incubation | 104 µM and 101 µM
C[C@H]1OC[C@@H](C2CCCC2)N[C@@H]1c1cccc(Cl)c1 | shake-flask, LC-HRMS | aqueous buffer | 16 h, pH 6.8 | < 4 µM
O=C(Nc1ccccc1)C1(C(F)(F)F)CC1 |  | PBS | pH 7.4, 25 °C, 2% DMSO | 371 µM
Nc1nc2c(ncn2COCCO)c(=O)[nH]1 | shake-flask | methanol-ethanol mixture | 298.2 K, mass fraction 0.2 | 630 µg/mL
CCCNc1ccnc(Nc2cccc(-c3cccnc3)c2)n1 |  | citrate phosphate-buffered saline | 18 h, pH 7.4, 1% DMSO | 29.4 ± 1.5 µM
COc1cc(OC)c2c(=O)c(OC)c(-c3ccccc3)oc2c1 | HPLC | ethanol:butylene glycol 75:25 |  | 2368 ± 20 ppm
CC(C)(C)c1ccc([C@H]2COC[C@@H](c3ccc(Cl)cc3)N2)cc1 | shake-flask, LC-HRMS | aqueous buffer | 16 h, pH 6.8 | < 4 µM
COc1ccc2[nH]cc(CCNC(=O)Nc3ccc(Cl)c(Cl)c3)c2c1 |  | aqueous buffer | pH 7.4 | < 2.7 µg/mL
Fc1ccc([C@@H]2COC[C@]3(CC[C@H](c4ccccc4)CC3)N2)c(Cl)c1 | shake-flask, LC-HRMS | aqueous buffer | 16 h, pH 6.8 | < 4 µM
COC(=O)c1ccccc1NC(=O)CSc1nnc(-c2ccc(OC)cc2)n1C |  | aqueous buffer | pH 7.4 | < 2.95 µg/mL
CCOC(=O)N1C[C@@H](C2CCCC2)N[C@@H](c2cc(Cl)cc(Cl)c2)C1 | shake-flask, LC-HRMS | aqueous buffer | 16 h, pH 6.8 | < 4 µM
COC(=O)c1ccc(NC(=O)CSc2nnc(-c3ccc(NC(C)=O)cc3)n2C)cc1 |  | aqueous buffer | pH 7.4 | < 2.35 µg/mL
CNC(=O)c1ccccc1Nc1cc(Nc2ccc(N3CCOCC3)cc2OC)ncc1C(F)(F)F |  | Tween 80 | 24 h, 25 °C | ~100 µg/mL
CCOC(=O)N1C[C@@H](C(CC)CC)N[C@@H](C2CC2)C1 | shake-flask, LC-HRMS | aqueous buffer | 16 h, pH 6.8 | > 750 µM
CC1(CNC(=O)[C@H](CN)NC(=O)c2ccc(C#Cc3ccccc3)cc2)NC(=O)NC1=O (stereo partly shown) |  | aqueous buffer | pH 7.4 | 470 µg/mL
CC(C)(C)c1nc(-c2cccc(N(Cc3cc(C(=O)[O-])ccc3OP(=O)([O-])[O-])S(=O)(=O)c3c(F)cccc3F)c2F)c(-c2ccnc(N)n2)s1.[Na+].[Na+].[Na+] | HPLC, saturated solution | simulated gastric fluid | 30 s, pH 1.2 | 350 µg/mL
Cc1cnnc(Nc2ccnc3ccc(-c4ccc(S(=O)(=O)N5CCOCC5)cc4)cc23)c1 | thermodynamic | aqueous medium |  | 1 µM
CCOC(=O)N1C[C@@H](C2CCCC2)N[C@@H](c2ccc(C(C)(C)C)cc2)C1 | shake-flask, LC-HRMS | aqueous buffer | 16 h, pH 6.8 | < 4 µM
CC(C)Oc1ccc2cc(C(=N)N)ccc2c1 |  | aqueous buffer | pH 7.4 | 2500 µg/mL
Cn1cncc1[C@@](N)(c1ccc(Cl)cc1)c1ccc2c(c1)c(-c1cccc(Cl)c1)cc(=O)n2C |  | acetate buffer | pH 4.5, 25 °C, final pH 4.35 | 32 ± 0.2 µg/mL
N#Cc1cc([C@@H]2COC[C@H](c3cc(Cl)cc(Cl)c3)N2)ccc1F | shake-flask, LC-HRMS | aqueous buffer | 16 h, pH 6.8 | < 4 µM
CC(C)Nc1ccnc(Nc2cccc(-c3ccccn3)c2)n1 |  | citrate phosphate-buffered saline | 18 h, pH 7.4, 1% DMSO | 24 ± 29.3 µM

For quick reference, copied from above:
Structure (SMILES) | assay | system | setting | solubility
Cc1nccn1CC1CCc2c(c3ccccc3n2C)C1=O (stereo not shown) | kinetic solubility | PBS with 2% DMSO | 2 h, pH 7.4, 25 °C, single incubation | 104 µM and 101 µM
C[C@H]1OC[C@@H](C2CCCC2)N[C@@H]1c1cccc(Cl)c1 | shake-flask, LC-HRMS | aqueous buffer | 16 h, pH 6.8 | < 4 µM
O=C(Nc1ccccc1)C1(C(F)(F)F)CC1 |  | PBS | pH 7.4, 25 °C, 2% DMSO | 371 µM
